Assay results pooled from the literature.
Each line is one published result; not all experiments were run side by side. Several values in a cell are separate wells, animals, samples, runs or records. ± marks the error that the study gave.

| SMILES | test | system | setting | scale | endpoint | value |
| --- | --- | --- | --- | --- | --- | --- |
| O=C1NC2(CC2)COc2ncc(F)cc2[C@H]2COCCN2c2ccn3ncc1c3n2 | – | Sprague-Dawley rat, female, serum | oral, 2.5 mg/kg/day, end of recovery, 4-week subacute toxicity | – | serum sodium | 144 ± 1 mmol/L |
| CC[C@H](C)[C@H](NC(=O)[C@H](C)NC(=O)[C@H](CCCCN)NC(=O)[C@H](CCCCN)NC(=O)[C@@H](N)CCCNC(=N)N)C(=O)N[C@@H](CCCCN)C(=O)N[C@@H](CC(C)C)C(=O)N[C@H](C(=O)N[C@@H](CCCCN)C(=O)N[C@@H](CCCCN)C(=O)N[C@@H](CC(C)C)C(=O)N[C@H](C(=O)N[C@@H](CCCCN)C(=O)N[C@@H](CCCCN)C(=O)N[C@@H](CC(C)C)C(=O)N[C@@H](CCCCN)C(=O)N[C@@H](CCCCN)C(=O)N[C@@H](C)C(=O)N[C@@H](CC(C)C)C(=O)N[C@@H](CCCCN)C(=O)O)C(C)C)C(C)C | – | human red blood cells | 0.5 mg/L, 1 h | – | hemolysis | 1.13% and 0.442% and 0.23% |
| CSCC[C@H](NC(=O)[C@@H](NC(=O)[C@H](CC(C)C)NC(=O)[C@@H](NC(=O)[C@H](Cc1c[nH]cn1)NC(=O)CCCCCNC(=O)[C@H](CCCNC(=N)N)NC(=O)[C@H](CCCNC(=N)N)NC(=O)[C@H](CCCNC(=N)N)NC(=O)[C@H](CCC(N)=O)NC(=O)[C@H](CCCNC(=N)N)NC(=O)[C@H](CCCNC(=N)N)NC(=O)[C@H](CCCCN)NC(=O)[C@H](CCCCN)NC(=O)[C@H](CCCNC(=N)N)NC(=O)CNC(=O)[C@@H](N)Cc1ccc(O)cc1)C(C)C)C(C)C)C(=O)N[C@@H](CS)C(=O)N[C@@H](C)C(=O)N[C@H](C(N)=O)[C@@H](C)O | – | C57BL/6J mice | Alzet osmotic pump, 3 mg/kg, 8 weeks | – | GGT | 0 U/L |
| CC[C@H](C)[C@@H]1NC(=O)[C@H](Cc2ccc(O)cc2)NC(=O)CCCSC[C@@H](C(=O)N(CC(=O)N[C@@H](CC(C)C)C(=O)NCC(N)=O)Cc2ccc(F)cc2)NC(=O)[C@H](CC(N)=O)NC(=O)[C@H](CCC(N)=O)NC1=O | – | human | intranasal, 5 µg single dose | – | deaths | 0% |
| CC(C)[C@@H]1NC(=O)CNC(=O)[C@H](CC(N)=O)NC(=O)[C@H](CCCNC(=N)N)NC(=O)[C@H](Cc2ccc(O)cc2)NC(=O)[C@H](C(C)C)NC(=O)[C@@H](NC(=O)[C@@H](NC(=O)[C@H](CC(N)=O)NC(=O)[C@H](Cc2c[nH]c3ccccc23)NC(=O)[C@H](C)NC(=O)[C@H](Cc2ccccc2)NC(=O)CNC(=O)[C@H](CCCCN)NC(=O)[C@H](Cc2ccccc2)NC(=O)[C@H](Cc2ccccc2)NC(=O)[C@H](CCCCN)NC(=O)OCC2c3ccccc3-c3ccccc32)C(C)C)CSSC[C@@H](C(=O)N[C@@H](Cc2c[nH]cn2)C(=O)N[C@@H](CCCNC(=N)N)C(=O)N[C@@H](CCCNC(=N)N)C(=O)N[C@@H](C)C(=O)N[C@@H](CC(N)=O)C(N)=O)NC(=O)[C@H](C(C)C)NC(=O)[C@H](CCCNC(=N)N)NC1=O | – | ICR mice, blood | intraductal mammary, 10 mg/kg, day 5 | – | mean platelet volume | 6.93 ± 0.18 fL |
| CCCCCCCCCCCCCCCC(=O)N[C@@H](CCC(=O)NCCOCCOCCC(=O)NCCOCCOCCC(=O)NCCCC[C@H](NC(=O)[C@H](CC(=O)O)NC(=O)[C@H](CC(C)C)NC(=O)[C@H](Cc1ccc(O)cc1)NC(=O)[C@H](CCCCN)NC(=O)[C@H](CO)NC(=O)[C@H](Cc1ccc(O)cc1)NC(=O)[C@H](CC(=O)O)NC(=O)[C@H](CO)NC(=O)[C@@H](NC(=O)[C@H](Cc1ccccc1)NC(=O)[C@@H](NC(=O)CNC(=O)[C@H](CCC(N)=O)NC(=O)[C@@H](CO)NC(=O)[C@@H](N)Cc1c[nH]cn1)[C@@H](C)O)[C@@H](C)O)C(=O)N[C@@H](CCCNC(=N)N)C(=O)N[C@@H](CCCNC(=N)N)C(=O)N[C@@H](C)C(=O)N[C@@H](CCC(N)=O)C(=O)N[C@@H](CC(=O)O)C(=O)N[C@@H](Cc1ccccc1)C(=O)N[C@H](C(=O)N[C@@H](CCC(N)=O)C(=O)N[C@@H](Cc1c[nH]c2ccccc12)C(=O)N[C@@H](CC(C)C)C(=O)N[C@@H](CC(C)C)C(=O)N[C@@H](CC(N)=O)C(=O)N[C@H](C(=O)NCC(=O)NCC(=O)N1CCC[C@H]1C(=O)N[C@@H](CO)C(=O)N[C@@H](CO)C(=O)NCC(=O)N[C@@H](C)C(=O)N1CCC[C@H]1C(=O)N1CCC[C@H]1C(=O)N1CCC[C@H]1C(=O)N[C@@H](CO)C(N)=O)[C@@H](C)O)C(C)C)C(=O)O | measured: ALP | Sprague-Dawley rat, male | subcutaneous, 20 µg/kg once daily, 14 days | – | serum enzyme activity | 150 ± 30.7 U/L |
| CC(C)(c1cc(Br)c(O)c(Br)c1)c1cc(Br)c(O)c(Br)c1 | ultrafiltration | cow milk whey | 200 nM nominal in whole milk | – | dose fraction in permeate | 6.32% |
| CC(C(=O)O)n1nc(Cn2cc3cc(OCC[18F])c(Cl)cc3n2)c2ccccc2c1=O (racemic) | HPLC | nonhuman primate, plasma | 120 min post-injection | baseline: plasma radioactivity | lipophilic radiometabolite | 9% |
| CCCCCCCCCCCCCCCC(=O)N[C@@H](CCC(=O)NCCCC[C@H](NC(=O)[C@H](CC(=O)O)NC(=O)[C@H](CO)NC(=O)[C@@H](NC(=O)[C@H](Cc1ccccc1)NC(=O)[C@@H](NC(=O)CNC(=O)[C@H](CCC(N)=O)NC(=O)[C@H](C)NC(=O)[C@@H](Cc1ccc(O)cc1)NC(C)=O)[C@@H](C)O)[C@@H](C)O)C(=O)N[C@@H](CO)C(=O)N[C@@H](CCCCN)C(=O)N[C@@H](Cc1ccc(O)cc1)C(=O)N[C@@H](CC(C)C)C(=O)N[C@@H](CC(=O)O)C(=O)N[C@@H](CCC(=O)O)C(=O)N[C@@H](CCCNC(=N)N)C(=O)N[C@@H](C)C(=O)N[C@@H](C)C(=O)N[C@@H](CCC(N)=O)C(=O)N[C@@H](CC(=O)O)C(=O)N[C@@H](Cc1ccccc1)C(=O)N[C@H](C(=O)N[C@@H](CCC(N)=O)C(=O)N[C@@H](Cc1c[nH]c2ccccc12)C(=O)N[C@@H](CC(C)C)C(=O)N[C@@H](CC(C)C)C(=O)N[C@@H](CCC(=O)O)C(=O)NCC(=O)NCC(=O)N1CCC[C@H]1C(=O)N[C@@H](CO)C(=O)N[C@@H](CO)C(=O)NCC(=O)N[C@@H](C)C(=O)N1CCC[C@H]1C(=O)N1CCC[C@H]1C(=O)N1CCC[C@H]1C(=O)N[C@@H](CO)C(N)=O)C(C)C)C(=O)O | – | cynomolgus monkey, plasma | intravenous, 0.0031 mg/kg | – | central volume of distribution | 0.0305 to 0.0321 L/kg |
| CC(C)c1ccccc1/N=N/c1ccc2[nH]cc(CCN(C)C)c2c1 | light irradiation | solution | together with: light 530 nm | – | trans isomer at photostationary state | 70% |
| CC[C@H](C)[C@H](NC(=O)[C@H](CCCN)NC(=O)[C@H](CCCNC(=N)N)NC(=O)[C@@H]1CCCN1C(=O)[C@@H]1CCCN1C(=O)[C@H](CCCNC(=N)N)NC(=O)[C@@H]1CCCN1C(=O)[C@H](CCCNC(=N)N)NC(=O)[C@@H]1CCCN1C(=O)[C@H](CC(C)C)NC(=O)[C@H](Cc1ccc(O)cc1)NC(=O)[C@@H]1CCCN1C(=O)[C@@H]1CCCN1C(=O)[C@H](CCCCN)NC(=O)[C@H](CC(=O)O)NC(=O)[C@@H](N)C(C)C)C(=O)N[C@@H](Cc1ccc(O)cc1)C(=O)N[C@@H](CC(N)=O)C(=O)N[C@@H](CCCN)C(N)=O | cELISA, total compound | CD-1 mice, female, plasma | subcutaneous, 4.34 µmol/kg, single dose | – | elimination half-life | 43 min |
| O=C(c1cc(Cc2n[nH]c(=O)c3ccccc23)ccc1F)N1CC(CNC2CC2)C1 | – | Wistar Han rat, male, blood | oral, 60 mg/kg daily, 4 weeks | – | haematocrit | 36.2 ± 4.7% |
| CC(C)[C@H]1NC(=O)[C@@H](C)NC(=O)[C@@H](C(C)C)NC(=O)[C@@H](Cc2ccccc2)NC(=O)[C@@H](C(C)C)NC(=O)[C@@H]([C@H](C)O)NC(=O)[C@@H](Cc2ccc(O)cc2)NC(=O)[C@@H](CCCNC(=N)N)NC(=O)[C@@H]2CCCC[C@H]2NC(=O)[C@@H](CO)NC(=O)[C@H](Cc2ccc(O)cc2)NC(=O)CSC[C@@H](C(=O)NCCOCCOCCOCCOCCOCCOCCC(N)=O)NC(=O)[C@@H](CO)NC(=O)[C@@H](C(C)C)NC(=O)[C@@H](Cc2ccc(O)cc2)NC1=O | – | simulated gastric fluid | pH 1.3, 37 °C, together with: pepsin | – | stability time | ≥ 12 h |
